Results from different studies.
Compare with care: the assays were run in different laboratories.

`CC[C@H](C)[C@H](NC(=O)[C@H](CC(C)C)NC(=O)[C@H](Cc1c[nH]c2ccccc12)NC(=O)[C@H](CCC(N)=O)NC(=O)[C@@H](NC(=O)[C@H](Cc1ccccc1)NC(=O)[C@H](C)NC(=O)[C@H](CCCCNC(=O)COCCOCCNC(=O)COCCOCCNC(=O)CC[C@H](NC(=O)CCCCCCCCCCCCCCCCCCC(=O)O)C(=O)O)NC(=O)[C@H](CCC(N)=O)NC(=O)[C@H](C)NC(=O)[C@@H](NC(=O)[C@H](CCCCN)NC(=O)[C@H](CC(=O)O)NC(=O)[C@H](CC(C)C)NC(=O)C(C)(C)NC(=O)[C@@H](NC(=O)[C@H](CO)NC(=O)[C@H](Cc1ccc(O)cc1)NC(=O)[C@H](CC(=O)O)NC(=O)[C@H](CO)NC(=O)[C@@H](NC(=O)[C@H](Cc1ccccc1)NC(=O)[C@@H](NC(=O)CNC(=O)[C@H](CCC(=O)O)NC(=O)C(C)(C)NC(=O)[C@@H](N)Cc1ccc(O)cc1)[C@@H](C)O)[C@@H](C)O)[C@@H](C)CC)[C@@H](C)CC)C(C)C)C(=O)N[C@@H](C)C(=O)NCC(=O)NCC(=O)N1CCC[C@H]1C(=O)N[C@@H](CO)C(=O)N[C@@H](CO)C(=O)NCC(=O)N[C@@H](C)C(=O)N1CCC[C@H]1C(=O)N1CCC[C@H]1C(=O)N1CCC[C@H]1C(=O)N[C@@H](CO)C(N)=O`: “AUC(0-inf) slope versus CLcr” -136 ng.h/mL per mL/min (human; subcutaneous, 5 mg, Cockcroft-Gault creatinine clearance).
`OCc1ncc2n1-c1ccc(Cl)cc1C(c1ccccc1F)=NC2` has an AUC(0-inf) of 45 ng·h/mL (human, plasma; oral, 7.5 mg of midazolam, day 19, arithmetic mean, no amenamevir).
`COc1ccc(C[C@@H]2NC(=O)[C@H]([C@@H](C)O)NC(=O)[C@@H]3[C@@H]4CCN3C(=O)[C@@H]3Cc5cn(c6ccc(F)cc56)CCCCCCN(Cc5ccc(cc5)CCNC(=O)[C@]5(C)CCCN5C2=O)C(=O)CCC(=O)N[C@@H](C)C(=O)N[C@H](CNC(=O)CCCCC[N+](C)(C)C)C(=O)N[C@@H](Cc2cccc(c2)CNC(=O)CO4)C(=O)N3)cc1` gave an AUC(0-inf) of 1.25 µM·h (healthy human males, plasma; oral, 200 mg single, geometric mean, added: Labrasol 1800 mg).
With `C[C@]1(CO)Cc2ncn(-c3ccc(C#N)c(Cl)c3)c2C(=O)O1` the AUC(0-inf) was 17.6 µM·h (human, plasma; 80 mg, first dose fasted).
`N.N.O=C([O-])C1(C(=O)[O-])CCC1.[Pt+2]` has an AUC(0-inf) of 36700 ng·h/mL (item: unbound platinum; human, plasma ultrafiltrate; intravenous, AUC 3, median, dose level -1).
For `Cn1nc(NS(C)(=O)=O)c2c(Cl)ccc(-n3c([C@H](Cc4cc(F)cc(F)c4)NC(=O)Cn4nc(C(F)F)c5c4C(F)(F)[C@@H]4C[C@H]54)nc4nc(OCCC(F)(F)F)ccc4c3=O)c21`, “AUC(0-inf) geometric mean ratio” read 0.55 (human; oral, single dose; baseline: tablet over powder in bottle).
For `Cc1ncc2n1-c1ccc(Cl)cc1C(c1ccccc1F)=NC2`, the AUC(0-inf) ratio was 186% (human, plasma; oral, single dose, added: dose, single, rimegepant 300 mg; baseline: with over without rimegepant).
The AUC(0-inf) change of `CNC(=O)n1ccc2cc(Oc3ccnc(NC(=O)c4ccc(C5CCN(CCO)CC5)cc4)c3)c(OCCOC)cc21` is reported as ~8% (healthy human, plasma; oral, dose not given, added: rabeprazole steady state; baseline: compound alone).
`O=c1ccc2ncc(=O)n3c2n1C[C@H]3CN1CCC(NCc2cc3c(cn2)OCCC3)CC1` has an AUC(0-inf) of 19300 ng·h/mL (healthy human volunteers, plasma; oral, 1500 mg, single dose alone, geometric mean).

Repeated from above:
For `Cc1ncc2n1-c1ccc(Cl)cc1C(c1ccccc1F)=NC2`, the AUC(0-inf) ratio was 186% (human, plasma; oral, single dose, added: dose, single, rimegepant 300 mg; baseline: with over without rimegepant).
